{"data": "Experimental data gathered from unrelated publications", "note": "Every numbered part comes from another study and shows a few of its results, in no order."}
{"data": "Block 1", "target": "Interferon regulatory factor 3, full length, phosphomimetic (IRF3, Homo sapiens, UniProt Q14653, residues 1-427, S386D/S396D/S398D/S402D/T404D/S405D)", "method": "protein-binding microarray", "molecule type": "double-stranded DNA, one strand shown", "sample": "in vitro", "concentration": "2540 nM top", "setting": "60-bp whole probe", "with": "salmon DNA 0.4 mg/ml", "relative to": "random background probes", "direction": "higher = stronger binding", "shared flanks, not repeated": "GCCTAGCAC … GTCTTGATTCGCTTGACGCTGCTG", "chain of UniProt Q14653 (whole entry, unmodified, looked up)": "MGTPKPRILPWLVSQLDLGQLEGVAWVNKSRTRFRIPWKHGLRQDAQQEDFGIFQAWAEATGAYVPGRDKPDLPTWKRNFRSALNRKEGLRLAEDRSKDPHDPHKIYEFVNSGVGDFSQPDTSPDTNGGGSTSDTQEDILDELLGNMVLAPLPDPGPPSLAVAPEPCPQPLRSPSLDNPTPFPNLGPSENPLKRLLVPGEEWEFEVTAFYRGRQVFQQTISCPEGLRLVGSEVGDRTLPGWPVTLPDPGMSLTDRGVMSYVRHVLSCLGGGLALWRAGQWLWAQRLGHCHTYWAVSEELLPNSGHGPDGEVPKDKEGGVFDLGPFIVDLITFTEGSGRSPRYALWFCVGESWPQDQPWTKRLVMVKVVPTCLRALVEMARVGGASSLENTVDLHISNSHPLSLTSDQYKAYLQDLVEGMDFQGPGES"}
{"Strand": "TTAGGTTTCGGTCTCGGTTTGTGCTAG", "fitted relative affinity [z-score]": 9.02}
{"Strand": "GACGGACTGCGGTTTCGGGACGTGCTA", "fitted relative affinity [z-score]": 1.92}
{"Strand": "TTAGGTTTCGGGTATCGGTTCGTGCTA", "fitted relative affinity [z-score]": 5.14}
{"Strand": "TTAGGTATACTTTTCCTTTAGTGCTAG", "fitted relative affinity [z-score]": 2.17}
{"Strand": "TCACTTCACCTCTCTGTCACTGTGCTA", "fitted relative affinity [z-score]": 0.719}
{"Strand": "TTTGGACTGGGACTGGGTTAGTGCTAG", "fitted relative affinity [z-score]": -1.02}
{"Strand": "TTGGGACTGGGTTTCGGTTAGTGCTAG", "fitted relative affinity [z-score]": 2.67}
{"Strand": "TTTAAAGAACCCACTATCTTGTGCTAG", "fitted relative affinity [z-score]": 0.0501}
{"Strand": "TTAGAACTCAGTCTCGATTAGTGCTAG", "fitted relative affinity [z-score]": 0.203}
{"Strand": "TTAGGTCTCGGTATCGGATAGTGCTAG", "fitted relative affinity [z-score]": 1.96}
{"Strand": "GACGGTCTCGGTCTCGGGGCGTGCTAG", "fitted relative affinity [z-score]": 1.07}
{"Strand": "GACGGTCTCGGTCTCCGGACGTGCTAG", "fitted relative affinity [z-score]": 1.51}
{"data": "Block 2", "Molecule": "PhoQ, residues 284 288 289 292 302 303 TTCLQL", "method": "Sort-seq", "measured": "YFP reporter", "sample": "E. coli", "setting": "PhoQ-PhoP variant library", "with": "10 µM Mg2+", "relative to": "high Mg2+ state", "direction": "higher = stronger signaling"}
{"target": "PhoP, residues 12 14 15 18 19 ICWRQ (Escherichia coli, UniProt P23836)", "fold induction": 5.48}
{"target": "PhoP, residues 12 14 15 18 19 VHTVL (Escherichia coli, UniProt P23836)", "fold induction": 3.36}
{"target": "PhoP, residues 12 14 15 18 19 TQCLL (Escherichia coli, UniProt P23836)", "fold induction": 24.7}
{"data": "Block 3", "target": "RING finger protein unkempt homolog, zinc fingers 1-6, GST-SBP tag (UNK, Homo sapiens, UniProt Q9C0B0, residues 30-357)", "method": "RNA Bind-n-Seq", "molecule type": "RNA", "sample": "in vitro", "concentration": "not given", "setting": "RNA with constant flanks, ends assumed", "relative to": "input RNA pool", "direction": "higher = stronger binding", "chain of UniProt Q9C0B0 (30-357, looked up)": "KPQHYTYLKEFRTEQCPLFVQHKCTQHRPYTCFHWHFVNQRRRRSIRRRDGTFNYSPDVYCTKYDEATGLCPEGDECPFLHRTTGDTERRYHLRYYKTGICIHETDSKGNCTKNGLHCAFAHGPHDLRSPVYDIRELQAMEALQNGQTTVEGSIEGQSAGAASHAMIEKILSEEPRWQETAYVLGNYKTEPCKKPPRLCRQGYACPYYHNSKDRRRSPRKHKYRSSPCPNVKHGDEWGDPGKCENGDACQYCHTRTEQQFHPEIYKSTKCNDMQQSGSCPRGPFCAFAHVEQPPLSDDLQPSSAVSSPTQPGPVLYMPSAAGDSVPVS"}
{"Strand": "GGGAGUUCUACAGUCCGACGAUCCGCUGCUGGACAUAUGAGACAUCGCUGCUGGUAGAAGAGGCCAUUAGUGAGGAGCUUCCCUACCGUGAAUACUUCGAGUACUUUGCCCCAGACUUCACACUUCAUCCAGAUGUCAGCACCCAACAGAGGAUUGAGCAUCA", "bound/input enrichment": "0.176 ratio"}
{"Strand": "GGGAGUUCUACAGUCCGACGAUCACCGCCCGGGUCGUGGAGCCAGGAGCGACGUCACCGCCAUGGCGGGCAUCAAAGCUUUAAUCCGUUUGUCCUUUGGAGGAGCGAUCGGGCUGAUGUUCCUGAUGCUUGGAUGUGCCCUUCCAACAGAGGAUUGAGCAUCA", "bound/input enrichment": "0.165 ratio"}
{"Strand": "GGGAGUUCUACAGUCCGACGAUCUGCUGCUGAAGGGUGUGUCUUGGGGCACACAUCCACUUUGAUUUUGCUUUACUCUUCCAGAACCGUUGCUGCGUAAUAGAAAUUACAUUUUUCUACUUGAUGGGUCAUCUUAAAUCUGGUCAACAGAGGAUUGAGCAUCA", "bound/input enrichment": "0.667 ratio"}
{"Strand": "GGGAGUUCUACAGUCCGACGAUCCCGAAGCCUUUCUCUCAAAUCUAGUAGUUAACAAGACCAUCUUUGCUAAAGUAGACAGAUCCGCAGGAAUUAUCAACUUCCAGAGACCCAAGGAUCCAAAUAAUUUAUUAAAUGACUGGUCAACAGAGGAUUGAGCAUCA", "bound/input enrichment": "2.07 ratio"}
{"Strand": "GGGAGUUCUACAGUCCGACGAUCCUUAAUUAGAGGGCAAUAUAUGUUUCAUAAAGAAGAGUCUUUAUAAUUUUGUUUGUCAGACCGUAUUUUGGAAUUUGUAUAAUAAGGAUGUUUAGAAGCCAUAUAAGUGGCUUUUUUUAACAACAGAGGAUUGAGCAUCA", "bound/input enrichment": "0.867 ratio"}
{"Strand": "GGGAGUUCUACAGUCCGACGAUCUUCGUUGCCUGUAAGCCCACUUGCUUCUCACUUCAUCAGACAAGCUCAAUACACACAAGACCGUAAUUUAAUGGGAGCUGUUAGGCUGGUCCACACGUGAAGAGAAACAAUUUCUAGCCUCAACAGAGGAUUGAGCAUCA", "bound/input enrichment": "0.148 ratio"}
{"data": "Block 4", "target": "RNA binding protein fox-1 homolog 2, RRM domain, GST-SBP tag (RBFOX2, Homo sapiens, UniProt O43251-10, residues 100-194)", "method": "RNA Bind-n-Seq", "molecule type": "RNA", "sample": "in vitro", "concentration": "365 nM", "setting": "natural RNA segment, single round, ends assumed", "relative to": "no-protein control", "direction": "higher = stronger binding", "Target sequence (chain)": "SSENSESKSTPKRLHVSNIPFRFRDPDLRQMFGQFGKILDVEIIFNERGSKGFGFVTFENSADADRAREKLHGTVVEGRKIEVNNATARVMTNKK"}
{"Strand": "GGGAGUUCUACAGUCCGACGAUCUCAGCCCUGUGCCCUGAUGAUGUCCCUGGCCUGUGAAUUCUGUCCUUGACUGACCCGUGCUCCUGGAGGAUCCCCAGUUGUGUCAAUGAUAGAUAGUUUAGUCAACAUCCUGGAAUUCUCGGGUGCCAA", "RBNS enrichment (R)": 0.526}
{"Strand": "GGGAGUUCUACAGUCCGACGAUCUACAAGCUCUUGCCUCUGUGCCUUUCUCAUGCUAUUCUUUUUGCUUAGAUUGCUCUUUGGUCCCAGCUCAUGUUCAUCACUCCCUUCAAAGCCUUUCUUCCUUUAUAUCUUGGAAUUCUCGGGUGCCAA", "RBNS enrichment (R)": 0.516}
{"Strand": "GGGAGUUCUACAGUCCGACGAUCAUCACAGCACAAGUGGCUGCAGCCUCCGCGGGGAACCAGGCGGGAGGGACUGAGUGGCCCGCGGGCCCCAGUGAGGCACUUUGUCCCGCCCAGCGCUGGCCAGCCCCGAGUGGAAUUCUCGGGUGCCAA", "RBNS enrichment (R)": 0.626}
{"Strand": "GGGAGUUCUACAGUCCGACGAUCGUCUAUGAUUUUCUCUCCAGACUCAUUGAAAAAGCUUCAGUCAACAGAAAGCCUCAGCUACCUCAGCAUUUUGUUGAUGCUUAUUUAGAUGAGAUGGAUCAAGGUAAAAAUGGAAUUCUCGGGUGCCAA", "RBNS enrichment (R)": 0.341}
{"Strand": "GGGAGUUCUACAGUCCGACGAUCUGGUGCUGGGGAAGGAGCCAGUUAGUGUUUCUGUGAGUUUGUGUUGUGAUGCAAUAAGAGAUAAGUAAUGCAGAGAGAAAUGAACCAUGGAAAGUAAGAACACUGAUGGUUGGAAUUCUCGGGUGCCAA", "RBNS enrichment (R)": 1.19}
{"Strand": "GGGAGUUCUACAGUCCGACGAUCCCACAACAGCUGGUGGGAGGGUGGGGUGGGCCUGGGUCCAGACCAGGCUCGCUGCUCUCUGGGCCUCAGUUUCCCCACCUGCCAGCGGGCUCGGCCCUGUCCUCCUCACAUGGAAUUCUCGGGUGCCAA", "RBNS enrichment (R)": 0.208}
{"Strand": "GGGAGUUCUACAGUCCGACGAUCGGCUGACACGUCCACCCCAGUGCACCCACUCUGCUUUGACUGAGCAGACUGGUGAGCAGACUGGUGGGAUCUGUGCCCAGAGAUGGGACUGGGAGGGCCCACUUCAGGGUUGGAAUUCUCGGGUGCCAA", "RBNS enrichment (R)": 0.25}
{"Strand": "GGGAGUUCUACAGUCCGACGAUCGUUCUUUUAUAUGCUGUGUCCUUUUGGGGUUUGACCUUACCAAAGCAAAGAAACAAAAAACAAAAAAAACAAAAAAAAAAAAGGGUGCAAGAAAUGUGGAAAUCUGUCUGUGGAAUUCUCGGGUGCCAA", "RBNS enrichment (R)": 1.04}
{"note": "Repeated from above (block 4):"}
{"Strand": "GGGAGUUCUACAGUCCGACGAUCUACAAGCUCUUGCCUCUGUGCCUUUCUCAUGCUAUUCUUUUUGCUUAGAUUGCUCUUUGGUCCCAGCUCAUGUUCAUCACUCCCUUCAAAGCCUUUCUUCCUUUAUAUCUUGGAAUUCUCGGGUGCCAA", "RBNS enrichment (R)": 0.516}
{"Strand": "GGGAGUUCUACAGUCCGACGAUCAUCACAGCACAAGUGGCUGCAGCCUCCGCGGGGAACCAGGCGGGAGGGACUGAGUGGCCCGCGGGCCCCAGUGAGGCACUUUGUCCCGCCCAGCGCUGGCCAGCCCCGAGUGGAAUUCUCGGGUGCCAA", "RBNS enrichment (R)": 0.626}
{"Strand": "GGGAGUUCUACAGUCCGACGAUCGUCUAUGAUUUUCUCUCCAGACUCAUUGAAAAAGCUUCAGUCAACAGAAAGCCUCAGCUACCUCAGCAUUUUGUUGAUGCUUAUUUAGAUGAGAUGGAUCAAGGUAAAAAUGGAAUUCUCGGGUGCCAA", "RBNS enrichment (R)": 0.341}
{"Strand": "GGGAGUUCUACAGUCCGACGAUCUGGUGCUGGGGAAGGAGCCAGUUAGUGUUUCUGUGAGUUUGUGUUGUGAUGCAAUAAGAGAUAAGUAAUGCAGAGAGAAAUGAACCAUGGAAAGUAAGAACACUGAUGGUUGGAAUUCUCGGGUGCCAA", "RBNS enrichment (R)": 1.19}
